Assay results collected from several papers.
Lines come from different studies, so protocols differ. Numbers after ± are the reported error.
STING1 H232R: Stimulator of interferon genes protein (STING1, Homo sapiens, UniProt Q86WV6, H232R)

With C=C(NC(=O)c1csc(-c2nc3c(cc2O)-c2nc(cs2)C(=O)NC(C(C)O)C(=O)NC(=C(C)OC)c2nc(cs2)C(=O)NC2c4nc(cs4)C(=O)NC(COC(=O)c4c5c6c(cccc6n4O)COC(=O)C(OC4CC(C)(O)C(N(C)C)C(C)O4)C2OC5)c2nc-3cs2)n1)C(N)=O (centres unmarked) the post-antibiotic effect was 0.49 ± 0.1 h (Staphylococcus aureus; ATCC 43300 MRSA; 1 x MIC, 1 h exposure).
CC(C)c1ccc(N(C)c2ccc3c(c2)OCC[C@H]3CNc2cnccc2C(=O)O)cc1 gave an IC50 of no less than 10 µM (NCI-H1755; cell growth or viability, ATP luminescence; 7 days).
CCCC[C@H](NC(=O)CCCCCCCNC(=O)CN1CCN(CC(=O)O)CCN(CC(=O)O)CC1)C(=O)N[C@H]1CC(=O)NCCCC[C@@H](C(N)=O)NC(=O)[C@H](Cc2c[nH]c3ccccc23)NC(=O)[C@H](CCCNC(=N)N)NC(=O)[C@@H](Cc2ccccc2)NC(=O)[C@H](Cc2c[nH]cn2)NC1=O [technetium-99m labelled] gave a tissue uptake of 28.9 ± 1.81 %ID/g (C57 mouse, tumor; intravenous, 0.037 MBq, 0.5 h).
The remaining binding of Nc1ncc(-c2cc(-c3cnn(CC(F)(F)F)c3)ncc2F)nc1C(=O)NC1CNCC(F)C1 (centres unmarked) is reported as 98% (YSK4; KINOMEscan; 1 µM; relative to: DMSO control).
For C=CC(=O)N1[C@@H](c2ccc3c(c2)OCO3)c2[nH]c3ccccc3c2C[C@H]1C(=O)N1CCN(C)CC1, the relative co-enrichment was 102% (human cyclin E1 N112C-3xFLAG:CDK2; co-IP with TMT proteomics, measured: DNAJA1; concentration not given, P31689; relative to: wild type DMSO).
CN1CCCNC(=O)c2cccc(c2)C(=O)NCCCN(C)CCCNc2cccc3c2C(=O)c2cccc(c2C3=O)NCCC1: “log2 fold change” 6.59 (SAS; RNA-seq, measured: RRH mRNA; 1 µM, 6 h; relative to: untreated cells).
For O=C(N[C@@H](CCCCNC(=O)c1ccc([N+](=O)[O-])o1)c1nc2ccccc2[nH]1)c1ccc(-n2ccnc2)cc1, the EC50 was 22.1 µM (STING1 H232R; reporter gene, inhibitor; THP1-Dual KI-hSTING-R232; 24 h, 1 h preincubation, together with: diABZI 500 nM).
N#Cc1ccc(Nc2n[nH]c3nc(-c4ccccc4)nc(N)c23)cc1 gave a CC50 of greater than 153 µM (HeLa Ohio; 72 h).
Under “log2 fold change”, Cn1ncc2cc(-c3cncc(Cl)c3N3CCC4(CCNC4=O)CC3)ccc21 is recorded as -1.28 (LS174T; gene expression, microarray, measured: KRT17 mRNA; concentration not given, 24 h; relative to: untreated cells).
Under “percent of control”, C=CC(=O)Nc1cccc(Cn2ncc3cnc(Nc4cnn(CCOC)c4)nc32)c1 is recorded as 75% (MEK3 human; binding, KINOMEscan; 100 nM; lower = stronger binding).
CO[C@@H]1[C@@H](OC(N)=O)[C@@H](O)[C@H](Oc2ccc3c(O)c(NC(=O)c4ccc(O)c(CC=C(C)C)c4)c(=O)oc3c2C)OC1(C)C gave a colony survival of 0.326% (DLD-1 BRCA2-/-; 200 µM, mean of replicates A, B; relative to: untreated).
For O=C(NCC[C@H](NC(=O)c1cccc2ccccc12)c1nc2ccccc2[nH]1)c1ccc([N+](=O)[O-])o1, the EC50 was 24 µM (STING1 H232R; reporter gene, inhibitor; THP1-Dual KI-hSTING-R232; 24 h, 1 h preincubation, together with: diABZI 500 nM).
Cc1ncsc1-c1ccc(C(C)NC(=O)C2CC(O)CN2C(=O)C(NC(=O)CCCCCCCCCCN2CCCC(Nc3ncc(Cl)c(Nc4ccccc4S(=O)(=O)C(C)C)n3)C2)C(C)(C)C)cc1 (centres unmarked) — result for “log2 fold change”: -1.87 (22Rv1; RNA-seq, measured: NUDT18 mRNA; concentration not given; relative to: DMSO).
CN1CCC[C@]1(C)/C=C/S(=O)(=O)NC(=O)Nc1c2c(cc3c1CCC3)CCC2 has an IL-18 inhibition of 92.9% (human, whole blood ex vivo; 100 mg twice daily, day 1, 6 h, multiple ascending dose, together with: LPS and ATP).
Under “log2 fold change”, COC1CN([C@H]2CC[C@H]([C@@]3(C)Oc4c(Cl)cc(C(=O)NCc5c(SC)cc(C)[nH]c5=O)c(C)c4O3)CC2)C1 is recorded as 2.2 (RNA-seq, measured: SULT1A2; human, whole blood; dose not given, 24 h; relative to: pretreatment baseline).
For CNS(=O)(=O)Nc1nccc(Cc2c(C)c3ccc(Oc4ncccc4F)cc3oc2=O)c1F, the IC50 was 0.00102 µM (COLO-800; cell viability; 7 days).
The fold regulation of CCN(CC)CC(=O)Nc1cccc(-n2cc(-c3ccc4ccc(-c5cn(-c6cccc(NC(=O)CN(CC)CC)c6)nn5)cc4c3)nn2)c1 is reported as -1.14 (RCC4; PCR angiogenesis array, measured: JAG1; 5 x IC50, 4 h, normoxia; relative to: untreated).
